Experimental data of several laboratories.
Parts stem from different laboratories: compare values within a part only. Positions count from the first letter of the parent shown.

Study 1 — technique: RNA Bind-n-Seq; form: RNA; medium: in vitro; tested at: 365 nM; reference: no-protein control; direction: higher = stronger binding
Target: RNA binding protein fox-1 homolog 2, RRM domain, GST-SBP tag (RBFOX2, Homo sapiens, UniProt O43251-10, residues 100-194)
Notes: natural RNA segment, single round, ends assumed
Constant ends, left off below: GGGAGUUCUACAGUCCGACGAUC … UGGAAUUCUCGGGUGCCAA
Construct (chain): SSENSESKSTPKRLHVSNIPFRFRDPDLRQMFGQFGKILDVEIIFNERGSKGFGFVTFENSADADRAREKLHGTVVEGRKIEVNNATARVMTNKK
`GUAAAUAUAAAUCUGUCAGCCACUACAGCCAUCAAAAGAGAGCAUCUGGAAGAACAGCCAGCUUGGAAGUUUUACAGCAAUAAUGUUGCAGUGGAAUAUUAUUUGUAGUU`: “RBNS enrichment (R)” 0.477.
For `GGCAUUGGUGCCUCCCUGGCAAGUCCUUAACGUACAGUACCUGUAGCUGUGAGUGUGGCCUGCUGCCUGCUUGUGAUGAGUGAUACCGUCUUACUGUUUCUGUUUCACAU`, “RBNS enrichment (R)” read 0.567.
Under “RBNS enrichment (R)”, `AGAAAUAGUAAACUUGCAGCUGCCCCUAAUGCAGCAUAUUUUUCUUACCAAAGGAGUCUUCAGCCCUAUAAAAGGAUUCCUCUAUAGUGUAUUUCUCUAGUGUAUUUAGU` is recorded as 0.651.
For `ACUCUAAGCUCCCACCUAAUAAGAAGCAUAGGCAGACCAGCCAGAGGGAGAGCCAAUGGCCUCUGGUAGCCUUAAGCCCAAAGGGCAGUGGGAAUGUCCCCUGCCCCAAC`, “RBNS enrichment (R)” read 0.499.
`GCUGACUAAACCCAGAAAGCCAAGGCUCUGCCAGUGGAAGAGACUUCACUUUUGUAGACCUUCCCUGAAGUCCAUGGAACAGACCUAAGGGAACAACUGAGCAUCAAAAC` — result for “RBNS enrichment (R)”: 0.412.
Under “RBNS enrichment (R)”, `CUUCUGGCUGGAAUGCUGUUCACGUCUGCAUCCAGCCCUGGGAUCGGCCUUCGUGUAUGGUUUCACCUUCCCAUGCUGCACUCUUUCCUGAGCCAUGUGGGAGUCGUGUG` is recorded as 0.266.
`GAGCAGAAGAAAUACCAAAAUGUUUCCAAAAUUUUUUUAAAAGCUGAGAUUUCCAGCUUUAUAACCAAAGCUUGAUAUAUGUCACAUUGUCACAGAAGAGAGAAAAGAUC` — result for “RBNS enrichment (R)”: 0.919.
Under “RBNS enrichment (R)”, `AGUGCACAGUCCCAGAGUCACGAGGCGUGGACUUCCUUCCCCACGAUGGGCCAGGGGGCCUUACCAUUUCCCUGGGCUCUACUGCCUAGACAAACCCAGCCCGGACUCCA` is recorded as 0.42.
`ACCAGGGCAAGUGCAUCUUUGCCUCAACUCCAGGAUUUAGGCCUUAACACACUGGCCAUUCUUAUGUUCCAGAUGGCCCCCAGCUGGUGUCCUGCCCGCCUUUCAUCUGG` — result for “RBNS enrichment (R)”: 1.48.
For `GACUCGGUUUCUCCAAACUGAAGCAGCCUCUCCCCAGGUCCAGCUCUGGAGGGGAGGGGGAUCCGACUGCUUUGGACCUAAAUGGCCUCAUGUGGCUGGAAGAUCCUGCG`, “RBNS enrichment (R)” read 0.321.
Under “RBNS enrichment (R)”, `UUGACUCGGGUACAAUAAAACUCUCAACACACACAAAGCCCAUCAGGCAAGAGUACAGUAAGCCUAAGGGGACUUGCUGCUCAAACCAAAAAUUAACUCUGAAGGUCAGU` is recorded as 0.631.
`GUAAAAUGACGGAAUCAGCAUGUGAGUAAGGAUCGCUUUCCUCAAAGGUUACCCUCCCACCCCCGCUAUUUCUCAUGAUUCGUCAAUAUCUAGGUUAGGUAUUGAAAGAU`: “RBNS enrichment (R)” 5.32.

Study 2 — technique: DHFR PCA, deep sequencing; medium: yeast; added: (+)-ABA 17 µM; reference: wild-type fitted maximum; direction: higher = stronger binding
Target: ABI1, truncated, D143A, DHFR fusion (Arabidopsis thaliana)
Notes: methotrexate growth selection, single substitutions
Starting sequence: PYL1, truncated, DHFR fusion (Arabidopsis thaliana); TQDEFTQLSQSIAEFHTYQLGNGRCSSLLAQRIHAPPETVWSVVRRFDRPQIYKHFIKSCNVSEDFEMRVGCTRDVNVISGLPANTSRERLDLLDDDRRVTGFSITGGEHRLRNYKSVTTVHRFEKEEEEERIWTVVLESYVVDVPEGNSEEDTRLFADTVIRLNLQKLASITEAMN
`T154K`: “relative binding score” 0.152%.
`N114M`: “relative binding score” 9.29%.
Under “relative binding score”, `F5T` is recorded as 73.2%.
For `V118I`, “relative binding score” read 84%.
`C72Q` — result for “relative binding score”: 82.3%.
Under “relative binding score”, `W134L` is recorded as 93.3%.
Under “relative binding score”, `R74W` is recorded as -12.3%.
`T120Y` — result for “relative binding score”: -3.75%.
For `L82P`, “relative binding score” read 33.2%.
`A84I`: “relative binding score” 4.25%.
`A13W` — result for “relative binding score”: 56.8%.
Under “relative binding score”, `V142D` is recorded as 40.7%.
Under “relative binding score”, `E14I` is recorded as 49.2%.
`I57N`: “relative binding score” -2.83%.
Under “relative binding score”, `D92K` is recorded as -23.1%.

Study 3 — technique: universal PBM; form: double-stranded DNA, one strand shown; medium: in vitro; tested at: not given; direction: higher = stronger binding
Target: Sal-like protein 4, full length isoform B (SALL4, Homo sapiens, UniProt Q9UJQ4-2, residues 1-616)
Notes: 8-mer, flanks averaged, mean of replicates
For `ATCGAGGG`, the E-score was -0.154.
For `AGGGCTAG`, the E-score was -0.0625.
The E-score of `GTAGAGTA` is reported as 0.121.
The E-score of `GCCTGCGA` is reported as -0.184.
For `CACCCCAG`, the E-score was -0.271.
`AACTACTT` gave an E-score of 0.0551.
The E-score of `CTCTCACA` is reported as 0.0862.
The E-score of `AAACTCGT` is reported as 0.0389.
`CGATGCCG` has an E-score of -0.284.
For `GATTGCCC`, the E-score was 0.0118.
For `ATCGTTGC`, the E-score was -0.0941.
`CGACGACC` gave an E-score of -0.22.
The E-score of `AAAGCACC` is reported as -0.147.
For `CTGGAACA`, the E-score was 0.0723.
`ATATCGCG` has an E-score of 0.0296.
`GGTCTGAA` gave an E-score of -0.0641.
For `GTTCAAAC`, the E-score was 0.0322.
With `AACATGGC` the E-score was -0.0433.
`AGGCTCAT` gave an E-score of -0.128.

Further values, each from its own experiment
UNK zinc fingers 1-6, SBP tag: RING finger protein unkempt homolog, zinc fingers 1-6, SBP tag (UNK, Homo sapiens, UniProt Q9C0B0, residues 30-357)
Sequence of UniProt Q9C0B0 (30-357, looked up): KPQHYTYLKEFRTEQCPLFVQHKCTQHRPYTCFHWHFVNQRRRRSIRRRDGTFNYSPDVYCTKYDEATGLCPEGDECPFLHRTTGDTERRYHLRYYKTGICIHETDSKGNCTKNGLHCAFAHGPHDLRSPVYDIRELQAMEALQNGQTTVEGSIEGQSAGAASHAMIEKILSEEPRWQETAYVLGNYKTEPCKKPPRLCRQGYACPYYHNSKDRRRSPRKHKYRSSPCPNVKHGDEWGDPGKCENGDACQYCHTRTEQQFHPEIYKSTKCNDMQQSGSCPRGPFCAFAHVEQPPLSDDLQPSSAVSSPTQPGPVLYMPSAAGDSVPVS
The bound/input enrichment of `GGGAGUUCUACAGUCCGACGAUCGGGCGGCCGGUGGGGGAAUCCCCUGCCUUGGCCUUGCCUCCCCUUCCUGCCACGUGCCCCCCGUUAUUUUUUUUUUUUUAACACCAUGUGAUUAAGGUCGGCGCUGCCUCCCCCGACCCACAACAGAGGAUUGAGCAUCA` is reported as 1.3 ratio (UNK zinc fingers 1-6, SBP tag; RNA Bind-n-Seq; RNA, in vitro; 100 nM, RNA with constant flanks, ends assumed; reference: input RNA pool, higher = stronger binding).
`PhoQ, residues 284 288 289 292 302 303 SSCLAV` has a fold induction of 8.31 (PhoP, residues 12 14 15 18 19 VHSCL (Escherichia coli, UniProt P23836); Sort-seq, measured: YFP reporter; E. coli; PhoQ-PhoP variant library, added: 10 µM Mg2+; reference: high Mg2+ state, higher = stronger signaling).
`GGGAGUUCUACAGUCCGACGAUCAUUCCGAAUGUUAAUAAAUUGCUCUGAGUUUCCUCAAGUCCAUUUUGUAAGAUCAGACCACCGGUGGGUGUUGUUUCUUUUAAGUGUGUGUACUGUGUCCAAUGUUACAUUUUCCGAAGUCAACAGAGGAUUGAGCAUCA` gave a bound/input enrichment of 0.548 ratio (UNK zinc fingers 1-6, SBP tag; RNA Bind-n-Seq; RNA, in vitro; 100 nM, RNA with constant flanks, ends assumed; reference: input RNA pool, higher = stronger binding).

Some of these lines once more (study 2):
`A13W` — result for “relative binding score”: 56.8%.
Under “relative binding score”, `R74W` is recorded as -12.3%.
`I57N`: “relative binding score” -2.83%.
`A84I`: “relative binding score” 4.25%.
For `L82P`, “relative binding score” read 33.2%.
For `V118I`, “relative binding score” read 84%.
`T154K`: “relative binding score” 0.152%.
